# Published values of several laboratories.
# Each line is one published result; not all experiments were run side by side. Values joined by “and” are separate records of one study, mostly repeats; a detail may differ. Numbers after ± are the reported error.
# Target: C-X-C chemokine receptor type 4 (CXCR4, Homo sapiens, UniProt P61073)
# UniProt P61073, sequence (whole entry, looked up): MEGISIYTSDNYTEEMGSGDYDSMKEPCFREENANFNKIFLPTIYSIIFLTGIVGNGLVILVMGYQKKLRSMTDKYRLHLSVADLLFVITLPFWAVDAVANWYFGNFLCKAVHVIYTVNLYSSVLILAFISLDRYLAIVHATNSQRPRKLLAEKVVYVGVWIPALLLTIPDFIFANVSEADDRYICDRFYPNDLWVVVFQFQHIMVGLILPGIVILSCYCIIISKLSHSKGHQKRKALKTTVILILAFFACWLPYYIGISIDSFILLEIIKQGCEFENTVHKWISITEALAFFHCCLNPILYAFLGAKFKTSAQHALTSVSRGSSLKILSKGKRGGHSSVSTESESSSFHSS
Compound,test,system,setting,how to read,measurement,value
Cc1ccc(S(=O)(=O)NCc2ccc(CNC(=O)c3cccc(C)c3)cc2)cc1,"binding, inhibitor, competitive binding",MDA-MB-231,with: biotinylated TN14003,,EC,1000 nM
CS(=O)(=O)c1ncc(N(Cc2ccccc2)Cc2ccco2)c(C(=O)Nc2ccccc2Cl)n1,"arrestin recruitment, antagonist, DiscoverX arrestin",,30 µM,reference: control,inhibition,0.48% and 0.38%
Cc1ccc(S(=O)(=O)NCc2ccc(CNC(=O)c3cccc(F)c3)cc2)cc1,"binding, inhibitor, competitive binding",MDA-MB-231,with: biotinylated TN14003,,EC,1 nM
O=C(NCc1ccc(CNS(=O)(=O)c2ccc3c(c2)CCO3)cc1)c1cc2ccccn2n1,"binding, competitor",MDA-MB-231,"semi-quantitative, with: biotinylated TN14003",,effective concentration,1 nM
COc1cccc(C(=O)NCc2ccc(CNS(=O)(=O)c3ccc(C)cc3)cc2)c1,"binding, inhibitor, competitive binding",MDA-MB-231,with: biotinylated TN14003,,EC,10 nM
CC(C)NCCCC[C@@H]1NC(=O)[C@H](Cc2ccc(O)cc2)NC(=O)[C@H](Cc2ccccc2)NC(=O)CC[C@H](C(=O)N[C@@H](CCCCNC(C)C)C(=O)N[C@@H](CCCCNC(=O)[C@H](CCC(=O)O)NC(=O)[C@H](CCC(=O)O)NC(=O)[C@H](CCC(=O)O)NC(=O)CN2CCN(CC(=O)O)CCN(CC(=O)O)CC2)C(N)=O)NC(=O)CNC(=O)[C@H](Cc2ccc3ccccc3c2)NC(=O)[C@@H](CCCNC(=N)N)NC1=O [fluorine-18 labelled],radioligand cell uptake,U87.CD4.CXCR4 cells,1 h,,internalized fraction,0.44 ± 0.04%
COc1ccc(-c2cc3nc(C)cc(N4CCN(c5ccccn5)CC4)n3n2)cc1OC,"arrestin recruitment, antagonist, DiscoverX arrestin",,30 µM,reference: control,inhibition,-0.88% and -0.82%
Cc1cc(C(=O)NCc2ccc(CNS(=O)(=O)c3ccc4c(c3)CCO4)cc2)n(C)n1,"binding, competitor",MDA-MB-231,"semi-quantitative, with: biotinylated TN14003",,effective concentration,~1000 nM
Cc1ccc(S(=O)(=O)NCc2ccc(CNC(=O)c3ccccc3C)cc2)cc1,"binding, inhibitor, competitive binding",MDA-MB-231,with: biotinylated TN14003,,EC,100 nM
c1ccc(-n2cc(CCN(Cc3nc(C4CC4)no3)Cc3nc(C4CC4)no3)cn2)cc1,"arrestin recruitment, antagonist, DiscoverX arrestin",,30 µM,reference: untreated,remaining activity,0.07% and 0.19%
CC[C@]12CCCN3CCc4c([nH]c5ccccc45)[C@]31N(Cc1cn(Cc3ccccc3)nn1)C(=O)C2,"beta-arrestin recruitment, antagonist, PathHunter chemiluminescence",,"20 µM, with: agonist at EC80",,inhibition,34%
CC(C)NCCCC[C@H](NC(=O)[C@H]1CCC(=O)N[C@@H](Cc2ccccc2)C(=O)N[C@@H](Cc2ccc(O)cc2)C(=O)N[C@@H](CCCCNC(C)C)C(=O)N[C@H](CCCNC(=N)N)C(=O)N[C@@H](Cc2ccc3ccccc3c2)C(=O)NCC(=O)N1)C(N)=O,"radioligand uptake, competitor",MM.1S cells,"75 µM, with: [18F]AlF-NOTA-SC",,inhibition,47%
Cc1ccc(CN(Cc2ccco2)c2cnc(S(C)(=O)=O)nc2C(=O)Nc2ccc(C)cc2)cc1,"arrestin recruitment, antagonist, DiscoverX arrestin",,30 µM,reference: control,inhibition,0.38% and 0.69%
Cc1ccc(S(=O)(=O)NCc2ccc(CNC(=O)c3ccccc3Cl)cc2)cc1,"binding, inhibitor, competitive binding",MDA-MB-231,with: biotinylated TN14003,,EC,10 nM
CCOc1cc(/C=C/C(=O)c2ccc(Cl)cc2)ccc1O,"arrestin recruitment, antagonist, DiscoverX arrestin",,30 µM,reference: control,inhibition,0.03% and 0.28%
O=C(NCc1ccc(CNS(=O)(=O)c2ccc(F)cc2F)cc1)c1cncnc1,"binding, competitor",MDA-MB-231,"semi-quantitative, with: biotinylated TN14003",,effective concentration,1 nM
O=C(NCc1ccc(CNS(=O)(=O)c2ccccc2)cc1)c1ccc(F)cc1,"binding, inhibitor, competitive binding",MDA-MB-231,with: biotinylated TN14003,,EC,100 nM
c1ccc(N(Cc2ccco2)Cc2nnc(C3CCC3)o2)cc1,"arrestin recruitment, antagonist, DiscoverX arrestin",,30 µM,reference: control,inhibition,0.04% and -0.03%
O=C(NCc1ccc(CNS(=O)(=O)c2ccccc2)cc1)c1ccc([N+](=O)[O-])cc1,"binding, inhibitor, competitive binding",MDA-MB-231,with: biotinylated TN14003,,EC,100 nM
S=C(NCCCCCCNC(=S)Nc1ccccc1)Nc1ccccc1,"arrestin recruitment, antagonist, DiscoverX arrestin",,30 µM,reference: control,inhibition,0.45% and 0.29%
O=C(NCc1ccc(CNS(=O)(=O)c2ccc3c(c2)CCO3)cc1)c1scc2c1OCCO2,"binding, competitor",MDA-MB-231,"semi-quantitative, with: biotinylated TN14003",,effective concentration,10 nM
CN1CCN(c2cc(-c3ccncc3)c(-c3ccc4ccccc4c3)nn2)CC1,"antagonist, FLIPR",,10 µM,,inhibition,23%
